Assay results pooled from the literature.
Protocols differ between the studies behind these lines. Several values in a cell are separate wells, animals, samples, runs or records. Numbers after ± are the reported error.
Tripartite terminase subunit 3 C-terminal nuclease domain: Tripartite terminase subunit 3, C-terminal nuclease domain (Human betaherpesvirus 5, UniProt P16732)
Chain of UniProt P16732 (whole entry, looked up): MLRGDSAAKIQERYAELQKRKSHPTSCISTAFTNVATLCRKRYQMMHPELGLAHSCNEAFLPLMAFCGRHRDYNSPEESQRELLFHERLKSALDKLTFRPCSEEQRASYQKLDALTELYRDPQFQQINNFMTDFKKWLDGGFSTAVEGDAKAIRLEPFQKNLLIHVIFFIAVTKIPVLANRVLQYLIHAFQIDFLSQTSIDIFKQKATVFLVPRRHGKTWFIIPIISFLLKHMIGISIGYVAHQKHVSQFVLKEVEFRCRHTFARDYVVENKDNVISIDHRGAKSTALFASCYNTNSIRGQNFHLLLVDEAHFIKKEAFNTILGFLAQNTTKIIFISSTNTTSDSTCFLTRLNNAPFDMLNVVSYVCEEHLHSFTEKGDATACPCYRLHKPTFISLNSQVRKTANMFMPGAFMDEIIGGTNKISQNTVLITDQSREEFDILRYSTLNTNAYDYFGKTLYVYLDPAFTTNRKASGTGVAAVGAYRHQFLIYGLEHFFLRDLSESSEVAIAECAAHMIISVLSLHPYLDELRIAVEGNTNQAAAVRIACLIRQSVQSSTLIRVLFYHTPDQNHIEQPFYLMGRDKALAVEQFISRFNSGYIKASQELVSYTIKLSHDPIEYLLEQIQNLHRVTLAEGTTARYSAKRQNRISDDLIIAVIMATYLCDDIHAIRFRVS
ache: Acetylcholinesterase (ache, Electrophorus electricus, UniProt O42275)
Chain of UniProt O42275 (whole entry, looked up): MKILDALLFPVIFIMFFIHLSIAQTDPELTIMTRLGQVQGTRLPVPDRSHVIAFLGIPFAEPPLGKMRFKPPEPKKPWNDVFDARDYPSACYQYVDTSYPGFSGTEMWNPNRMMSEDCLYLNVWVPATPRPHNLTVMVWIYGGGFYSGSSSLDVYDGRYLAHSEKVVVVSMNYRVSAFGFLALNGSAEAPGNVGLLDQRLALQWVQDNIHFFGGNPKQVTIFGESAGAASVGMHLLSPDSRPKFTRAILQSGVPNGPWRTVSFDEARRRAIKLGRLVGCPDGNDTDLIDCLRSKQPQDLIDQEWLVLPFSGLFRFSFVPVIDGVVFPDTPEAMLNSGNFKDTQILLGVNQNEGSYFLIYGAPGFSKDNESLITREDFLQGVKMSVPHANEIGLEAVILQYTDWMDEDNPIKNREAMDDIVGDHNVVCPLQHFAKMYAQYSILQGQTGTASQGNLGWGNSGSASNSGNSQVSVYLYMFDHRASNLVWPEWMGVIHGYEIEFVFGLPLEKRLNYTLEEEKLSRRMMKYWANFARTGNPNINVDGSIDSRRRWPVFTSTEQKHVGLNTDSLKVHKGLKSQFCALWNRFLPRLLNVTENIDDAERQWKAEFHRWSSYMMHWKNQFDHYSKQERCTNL
AKR1C2: Aldo-keto reductase family 1 member C2 (AKR1C2, Homo sapiens, UniProt P52895)
Chain of UniProt P52895 (whole entry, looked up): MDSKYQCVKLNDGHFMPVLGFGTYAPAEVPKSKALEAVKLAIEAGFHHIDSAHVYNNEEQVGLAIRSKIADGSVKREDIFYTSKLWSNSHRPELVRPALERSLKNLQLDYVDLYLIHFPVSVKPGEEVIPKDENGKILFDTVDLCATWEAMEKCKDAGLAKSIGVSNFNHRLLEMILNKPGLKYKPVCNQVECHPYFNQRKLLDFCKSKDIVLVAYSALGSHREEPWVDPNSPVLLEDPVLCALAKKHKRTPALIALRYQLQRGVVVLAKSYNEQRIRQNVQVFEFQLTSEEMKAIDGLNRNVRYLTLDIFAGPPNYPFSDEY
Chain of UniProt P00811 (whole entry, looked up): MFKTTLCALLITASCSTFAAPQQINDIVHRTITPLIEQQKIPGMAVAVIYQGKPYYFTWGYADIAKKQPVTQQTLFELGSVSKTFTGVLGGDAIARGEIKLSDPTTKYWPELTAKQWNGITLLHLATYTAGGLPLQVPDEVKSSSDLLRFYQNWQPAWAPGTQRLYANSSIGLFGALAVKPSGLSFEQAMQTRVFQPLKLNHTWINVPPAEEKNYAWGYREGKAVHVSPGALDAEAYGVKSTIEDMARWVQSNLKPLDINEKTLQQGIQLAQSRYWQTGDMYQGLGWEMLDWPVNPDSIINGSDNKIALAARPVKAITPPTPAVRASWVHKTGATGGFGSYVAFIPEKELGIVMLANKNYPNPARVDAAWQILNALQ
Chain of UniProt Q13546 (whole entry, unmodified, looked up): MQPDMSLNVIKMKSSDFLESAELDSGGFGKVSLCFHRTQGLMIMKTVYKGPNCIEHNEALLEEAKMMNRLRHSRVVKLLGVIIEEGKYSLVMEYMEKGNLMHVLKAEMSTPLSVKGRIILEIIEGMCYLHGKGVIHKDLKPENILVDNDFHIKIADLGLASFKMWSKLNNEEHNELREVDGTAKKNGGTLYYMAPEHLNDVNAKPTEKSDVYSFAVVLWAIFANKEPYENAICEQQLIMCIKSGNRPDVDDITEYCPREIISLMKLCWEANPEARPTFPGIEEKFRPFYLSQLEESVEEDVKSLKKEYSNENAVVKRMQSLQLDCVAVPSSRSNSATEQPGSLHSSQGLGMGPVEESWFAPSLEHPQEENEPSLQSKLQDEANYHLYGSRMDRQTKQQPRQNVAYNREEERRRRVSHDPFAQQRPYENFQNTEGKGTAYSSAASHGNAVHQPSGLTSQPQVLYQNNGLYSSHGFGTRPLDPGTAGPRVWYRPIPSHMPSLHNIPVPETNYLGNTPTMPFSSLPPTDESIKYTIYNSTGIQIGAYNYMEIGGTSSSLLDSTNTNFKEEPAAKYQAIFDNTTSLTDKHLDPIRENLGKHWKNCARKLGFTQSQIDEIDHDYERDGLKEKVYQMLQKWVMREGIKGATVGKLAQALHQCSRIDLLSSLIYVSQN
Chain of UniProt P00690 (whole entry, looked up): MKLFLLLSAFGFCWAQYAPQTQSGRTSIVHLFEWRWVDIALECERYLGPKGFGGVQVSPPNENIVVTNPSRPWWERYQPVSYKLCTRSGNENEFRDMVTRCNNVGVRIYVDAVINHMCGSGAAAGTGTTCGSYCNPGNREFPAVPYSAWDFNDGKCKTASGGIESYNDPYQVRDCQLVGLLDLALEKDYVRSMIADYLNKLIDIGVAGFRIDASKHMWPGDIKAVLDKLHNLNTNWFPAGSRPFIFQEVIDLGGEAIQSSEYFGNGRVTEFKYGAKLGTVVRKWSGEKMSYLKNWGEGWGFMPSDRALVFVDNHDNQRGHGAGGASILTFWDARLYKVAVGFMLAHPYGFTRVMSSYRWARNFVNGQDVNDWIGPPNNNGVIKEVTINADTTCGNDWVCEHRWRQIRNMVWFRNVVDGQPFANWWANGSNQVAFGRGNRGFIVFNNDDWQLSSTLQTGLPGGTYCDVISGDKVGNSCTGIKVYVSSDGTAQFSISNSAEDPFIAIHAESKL
Chain of UniProt P49137 (whole entry, looked up): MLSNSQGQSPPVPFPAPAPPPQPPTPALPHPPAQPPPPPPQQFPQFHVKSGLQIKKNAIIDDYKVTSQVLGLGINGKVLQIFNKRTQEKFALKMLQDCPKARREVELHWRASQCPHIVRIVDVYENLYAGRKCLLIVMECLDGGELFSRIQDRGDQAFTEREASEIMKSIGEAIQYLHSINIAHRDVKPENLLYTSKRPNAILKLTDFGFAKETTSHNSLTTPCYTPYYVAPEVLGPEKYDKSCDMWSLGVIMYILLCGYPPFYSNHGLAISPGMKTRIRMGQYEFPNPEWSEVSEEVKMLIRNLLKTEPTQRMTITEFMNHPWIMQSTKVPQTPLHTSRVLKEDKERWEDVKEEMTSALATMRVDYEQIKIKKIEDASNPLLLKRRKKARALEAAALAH
Chain of UniProt Q9R0C9 (whole entry, looked up): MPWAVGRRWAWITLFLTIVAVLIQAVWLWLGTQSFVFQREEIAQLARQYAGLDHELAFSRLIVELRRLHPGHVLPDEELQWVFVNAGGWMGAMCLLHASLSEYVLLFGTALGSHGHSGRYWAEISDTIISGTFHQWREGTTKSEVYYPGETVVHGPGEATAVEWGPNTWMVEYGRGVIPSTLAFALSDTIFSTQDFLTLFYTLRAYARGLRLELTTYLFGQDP
Chain of UniProt P08246 (whole entry, looked up): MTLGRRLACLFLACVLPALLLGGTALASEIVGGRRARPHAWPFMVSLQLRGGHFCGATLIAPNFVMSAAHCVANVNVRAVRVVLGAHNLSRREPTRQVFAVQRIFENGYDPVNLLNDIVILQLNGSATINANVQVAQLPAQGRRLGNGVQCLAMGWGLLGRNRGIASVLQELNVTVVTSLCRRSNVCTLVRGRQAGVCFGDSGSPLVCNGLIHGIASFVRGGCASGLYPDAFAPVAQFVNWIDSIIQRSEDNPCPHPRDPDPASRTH
Chain of UniProt P08592 (whole entry, looked up): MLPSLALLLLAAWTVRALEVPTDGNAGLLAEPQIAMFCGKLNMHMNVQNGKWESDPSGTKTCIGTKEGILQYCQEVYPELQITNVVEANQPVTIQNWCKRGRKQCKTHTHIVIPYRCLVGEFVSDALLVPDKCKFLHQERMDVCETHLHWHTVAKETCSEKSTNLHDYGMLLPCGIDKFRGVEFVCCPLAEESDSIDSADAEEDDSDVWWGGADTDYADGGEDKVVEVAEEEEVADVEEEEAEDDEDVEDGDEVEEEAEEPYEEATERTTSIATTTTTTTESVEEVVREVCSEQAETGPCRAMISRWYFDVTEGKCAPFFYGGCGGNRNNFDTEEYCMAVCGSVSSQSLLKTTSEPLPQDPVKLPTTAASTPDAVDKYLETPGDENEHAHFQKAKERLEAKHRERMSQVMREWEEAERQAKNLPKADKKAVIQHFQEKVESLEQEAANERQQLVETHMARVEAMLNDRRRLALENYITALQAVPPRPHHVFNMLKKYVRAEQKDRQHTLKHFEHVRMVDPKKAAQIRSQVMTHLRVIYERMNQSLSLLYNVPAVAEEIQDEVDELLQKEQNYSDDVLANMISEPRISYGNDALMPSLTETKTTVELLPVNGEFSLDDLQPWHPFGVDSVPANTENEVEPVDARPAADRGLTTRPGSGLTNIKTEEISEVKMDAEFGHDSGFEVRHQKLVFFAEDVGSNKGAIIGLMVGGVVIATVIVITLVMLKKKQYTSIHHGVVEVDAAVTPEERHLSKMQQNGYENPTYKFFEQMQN

| SMILES | target | assay | system | conditions | how to read | inhibition |
| --- | --- | --- | --- | --- | --- | --- |
| S=C(NCc1ccccn1)NCc1ccccn1 | Pancreatic alpha-amylase (AMY2, Sus scrofa, UniProt P00690) | enzyme activity, inhibitor | – | 500 µg/mL | – | 57.8% |
| NCC(CCC(N)C(=O)O)CC1OC(n2cnc3c(N)ncnc32)C(O)C1O (stereo not shown) | Histone-arginine methyltransferase CARM1 (CARM1, Homo sapiens, UniProt Q86X55) | enzyme activity, inhibitor | – | 20 µM | – | > 50% |
| CC(C)(C)c1ccc(C(=O)Nc2cc(Cl)c(Br)cc2C(=O)O)cc1 | Hexokinase-4 (GCK, Homo sapiens, UniProt P35557) | enzyme activity, inhibitor | – | 10 µM | – | 11.9% |
| OB(O)c1ccccc1-c1nnn[nH]1 | Beta-lactamase (ampC, Escherichia coli K-12, UniProt P00811) | inhibitor | – | 10 µM, together with: CENTA substrate | – | < 10% |
| C[C@]12CCC[C@H]1[C@@H]1CCc3c(cc(Br)c(O)c3Br)[C@H]1CC2 | Aldo-keto reductase family 1 member C1 (AKR1C1, Homo sapiens, UniProt Q04828) | enzyme activity, inhibitor, absorbance | – | 10 µM, pH 9 | – | 33% |
| O=C(C[P+]([Au-][Cl])(c1ccccc1)c1ccccc1)[O][Ti+2][O]C(=O)C[P+]([Au-][Cl])(c1ccccc1)c1ccccc1.c1cc[cH-]c1.c1cc[cH-]c1 | Protein kinase C theta type (PRKCQ, Homo sapiens, UniProt Q04759) | kinase activity | – | 10 µM | – | ≥ 50% |
| Cc1ccc(CNC(=O)c2cn(Cc3ccc(F)cc3)cc(O)c2=O)c(F)c1 | Tripartite terminase subunit 3 C-terminal nuclease domain | endonuclease activity, inhibitor, ELISA | – | 20 µM | – | 8% |
| COc1ccc(Nc2c3c(nc4ccc(Cl)cc24)CCCC3)nc1 | ache | enzyme activity, inhibitor, Ellman | – | 100 µM | – | > 90% |
| C[C@]12CC[C@@H]3c4ccc(O)c(Cl)c4CC[C@H]3[C@@H]1CCC2=O | AKR1C2 | enzyme activity, inhibitor, absorbance | – | 10 µM, pH 9 | – | 70% |
| Cc1c(C(=O)Nc2cccc(C(F)(F)F)c2)cc(-c2ccccc2)n1CCCN1CCOCC1 | Transient receptor potential cation channel subfamily V member 4 (TRPV4, Homo sapiens, UniProt Q9HBA0) | calcium influx, antagonist | Huh-7 | 1 µM, together with: GSK1016790A 10 nM | – | inhibited |
| CCN(CC)CCOc1ccc(-c2nnn(Cc3ccc(OC)cc3)c2N)cc1 | TGF-beta receptor type-1, with RKIP (TGFBR1, Homo sapiens, UniProt P36897, R255A) | binding to RKIP | – | concentration not given, TGFBR1 R255A mutant | – | no inhibition |
| C/C(=N\OCCCN1CCCCC1)c1ccc(C(F)(F)F)cc1 | Sigma non-opioid intracellular receptor 1 (Sigmar1, Rattus norvegicus, UniProt Q9R0C9) | radioligand binding | – | 10 µM | – | 97.8% |
| Cc1ccnc(Nc2c3c(nc4ccccc24)CCC(C)C3)c1 (stereo not shown) | ache | enzyme activity, inhibitor, Ellman | – | 100 µM | – | 77.4% |
| C[C@@]12CC[C@H]3[C@@H](CCC4=CC(=O)C=C[C@@]43F)[C@@H]1CCC2=O | AKR1C2 | enzyme activity, inhibitor, absorbance | – | 100 µM, pH 9 | – | 75% |
| CC1(C)OB(c2ccc(CNC(=O)c3cn(Cc4ccc(F)cc4)cc(O)c3=O)cc2)OC1(C)C | Tripartite terminase subunit 3 C-terminal nuclease domain | endonuclease activity, inhibitor, ELISA | – | 20 µM | – | 5% |
| COC(=O)N(C)[C@@H](Cc1ccccc1)C(=O)N[C@@H](Cc1ccccc1)C(=O)N[C@@H](CC1CCCCC1)C(=O)N[C@@H](CCCNC(=N)N)C(=O)N[C@@H](CC(C)C)C(=O)N[C@@H](CCCNC(=N)N)C(=O)N[C@@H](CCCNC(=N)N)C(=O)N[C@H](C)C(=O)N[C@@H](CCCNC(=N)N)C(=O)N1CCC[C@H]1C(=O)N[C@@H](CCCCN)C(N)=O | Kappa-type opioid receptor (Oprk1, Rattus norvegicus, UniProt P34975) | adenylyl cyclase activity, agonist | CHO cells | 10 µM | baseline: dynorphin A(1-13) amide | > 40% |
| CC(C)c1ccc(C(=O)Nc2ccc(CN3CCN(C)CC3)c(C(F)(F)F)c2)cc1C#Cc1cnc2cccnn12 | Receptor-interacting serine/threonine-protein kinase 1 (RIPK1, Homo sapiens, UniProt Q13546, L157F/M92T) | autophosphorylation, inhibitor | – | concentration not given, FLAG-tagged, residues 1-327 | – | inhibited |
| C[C@@]12CC[C@@H]3c4cc(Cl)c(O)c(Cl)c4CC[C@H]3[C@@H]1CCC2=O | AKR1C2 | enzyme activity, inhibitor, absorbance | – | 100 µM, pH 9 | – | 81.5% |
| COc1ccc(Nc2c(NC3CCN(Cc4ccccc4)CC3)c(=O)c2=O)cc1OC | ache | enzyme activity, inhibitor, Ellman | – | 12.5 µM | – | 49.6% |

| SMILES | target | assay | system | conditions | how to read | inhibition |
| --- | --- | --- | --- | --- | --- | --- |
| COc1ccc(Nc2c3c(nc4ccccc24)CCC(C)C3)nc1 (stereo not shown) | ache | enzyme activity, inhibitor, Ellman | – | 50 µM | – | 22.2% |
| O=C(NCCCCCn1ccc2ccc(F)cc21)Oc1cccc(F)c1 | Monoglyceride lipase (MGLL, Homo sapiens, UniProt Q99685) | enzyme activity, inhibitor | – | 10 µM | – | 39% |
| COc1cc(-c2oc3cc(O)c(OC)c(O)c3c(=O)c2OC)ccc1O | Neutrophil elastase (ELANE, Homo sapiens, UniProt P08246) | enzyme activity, inhibitor | – | 10 µM | – | 20.3 to 27.1% |
| Oc1cccc2cccnc12 | 1-deoxy-D-xylulose 5-phosphate reductoisomerase (Escherichia coli K-12, UniProt P45568) | enzyme activity, inhibitor, absorbance | – | 100 µM | – | 100% |
| CC(=O)NC(Cc1ccc(Br)c(Cl)c1)C(=O)N[C@@H](C)C(=O)N1CCC[C@H]1C(=O)N1CCC[C@H]1C(=O)N[C@@H](CCC(=O)O)C(=O)N[C@@H](Cc1c[nH]cn1)C(=O)N[C@@H](CO)C(=O)N[C@H](C(=O)N[C@@H](C)C(N)=O)[C@@H](C)OP(=O)(O)O (stereo partly shown) | MAP kinase-activated protein kinase 2 (MAPKAPK2, Homo sapiens, UniProt P49137) | – | – | 10 µM | – | 0.34 ± 0.02% |
| c1ccc2nc(Nc3c4c(nc5ccccc35)CCCC4)ccc2c1 | ache | enzyme activity, inhibitor, Ellman | – | 100 µM | – | 83.5% |
| C[C@@](O)(C(F)F)[C@H](NC(=O)c1ccc(C#CC#CC2CC2)cc1)C(=O)NO | Matrilysin (MMP7, Homo sapiens, UniProt P09237) | enzyme activity, inhibitor | – | 30 µM | – | ≤ 30% |
| CC1CCc2nc3ccccc3c(Nc3ccc4ccccc4n3)c2C1 (stereo not shown) | ache | enzyme activity, inhibitor, Ellman | – | 50 µM | – | 27% |
| COc1ccc(CNc2c(NC3CCN(Cc4ccccc4)CC3)c(=O)c2=O)cc1OC | ache | enzyme activity, inhibitor, Ellman | – | 25 µM | – | 70.1% |
| COc1ccc2cc(/C=C/c3cc[n+](Cc4ccc(F)cc4)cc3)ccc2c1 | Amyloid-beta precursor protein, amyloid-beta 1-42 peptide (Rattus norvegicus, UniProt P08592) | Abeta42 self-aggregation, thioflavin T | – | 5 µM | – | 60% |
| COc1ccc(Nc2c3c(nc4ccccc24)CCCC3)nc1 | ache | enzyme activity, inhibitor, Ellman | – | 100 µM | – | 54.3% |
| CC(C)CC(O)(CC(C)C)c1cn(C(=O)N2CCCC2)nn1 | Acylamino-acid-releasing enzyme (Apeh, Mus musculus, UniProt Q8R146) | probe labelling, inhibitor, gel-based competitive ABPP | mouse T-cell proteome | 10 nM, 30 min | – | inhibited |
| Cc1ccc(N2CC3CCC(C2)N3C)cc1C(=O)N[C@H](C)c1cc(-c2cnn(C)c2)nc2ccccc12 | Caspase-3 (CASP3, Homo sapiens, UniProt P42574) | enzyme activity | – | concentration not given | – | no inhibition |
| O=C(O)/C=C/c1ccc(O)cc1 | alpha-glucosidase | enzyme activity | – | 125 µg/mL | – | 51.1% and 53.4% |
| c1ccc2c(Nc3c4c(nc5ccccc35)CCCC4)cccc2c1 | ache | enzyme activity, inhibitor, Ellman | – | 100 µM | – | 65.1% |
| O=C(NCc1cc(F)ccc1F)c1cn(Cc2ccc(F)cc2)cc(O)c1=O | Tripartite terminase subunit 3 C-terminal nuclease domain | endonuclease activity, inhibitor, ELISA | – | 20 µM | – | 6% |
| COc1ccnc(Nc2c3c(nc4cc(C)ccc24)CCCC3)c1 | ache | – | – | 100 µM | – | 98.5 ± 3.77% |
| O=c1c(Nc2ccc(Br)cc2)c(NC2CCN(Cc3ccccc3)CC2)c1=O | ache | enzyme activity, inhibitor, Ellman | – | 12.5 µM | – | 40.4% |

Excerpt of the above:
| SMILES | target | assay | system | conditions | how to read | inhibition |
| --- | --- | --- | --- | --- | --- | --- |
| NCC(CCC(N)C(=O)O)CC1OC(n2cnc3c(N)ncnc32)C(O)C1O (stereo not shown) | Histone-arginine methyltransferase CARM1 (CARM1, Homo sapiens, UniProt Q86X55) | enzyme activity, inhibitor | – | 20 µM | – | > 50% |
| COc1cc(-c2oc3cc(O)c(OC)c(O)c3c(=O)c2OC)ccc1O | Neutrophil elastase (ELANE, Homo sapiens, UniProt P08246) | enzyme activity, inhibitor | – | 10 µM | – | 20.3 to 27.1% |
| Oc1cccc2cccnc12 | 1-deoxy-D-xylulose 5-phosphate reductoisomerase (Escherichia coli K-12, UniProt P45568) | enzyme activity, inhibitor, absorbance | – | 100 µM | – | 100% |
| COc1ccc(Nc2c3c(nc4ccccc24)CCCC3)nc1 | ache | enzyme activity, inhibitor, Ellman | – | 100 µM | – | 54.3% |
| COc1ccnc(Nc2c3c(nc4cc(C)ccc24)CCCC3)c1 | ache | – | – | 100 µM | – | 98.5 ± 3.77% |
